Published values gathered from unrelated publications.
Compare with care: the assays were run in different laboratories. ± gives the spread as reported.

`c1ccc(-c2n[nH]cc2-c2ccnc3ccccc23)nc1` — result for “log2 fold change”: -0.08 (NPR1 (Candida albicans); kinase binding, MIB/MS competition; Candida albicans lysate; 10 µM; relative to: DMSO).
`CNS(=O)(=O)Nc1nccc(Cc2c(C)c3ccc(Oc4ncccc4F)cc3oc2=O)c1F` has an IC50 of 142 nM (CAL-62; cell viability; 7 days).
`C=CC(=O)N1[C@@H](c2ccc3c(c2)OCO3)c2[nH]c3ccccc3c2C[C@H]1C(=O)N1CCN(C)CC1` has a relative co-enrichment of 136% (human cyclin E1 N112C-3xFLAG:CDK2; co-IP with TMT proteomics, measured: PPIB; concentration not given; relative to: wild type DMSO).
`C=C1CC[C@H](OCCCNC(=O)CCOCCOCCOCCOCCOCCOCCOCCOCCOCCOCCOCCOCCOCCOCCOCCOCCOCCOCCOCCOCCOCCOCCOCCOCCOCCOCCOCCOCCOCCOCCOCCOCCOCCOCCOCCOCCNC(=O)CCN2C(=O)CC(SC[C@H](NC(=O)[C@H](Cc3ccccc3)NC(=O)[C@H](CC(N)=O)NC(=O)[C@H](Cc3c[nH]cn3)NC(=O)[C@@H](NC(=O)[C@H](CC(=O)O)NC(=O)[C@H](CCC(N)=O)NC(=O)[C@H](CC(C)C)NC(=O)[C@H](CCCCN)NC(=O)[C@H](CCCCN)NC(=O)[C@H](CCCNC(=N)N)NC(=O)[C@H](CC(C)C)NC(=O)[C@H](Cc3c[nH]c4ccccc34)NC(=O)[C@H](CCC(=O)O)NC(=O)[C@@H](NC(=O)[C@H](CCCNC(=N)N)NC(=O)[C@H](CCC(=O)O)NC(=O)[C@H](CCSC)NC(=O)[C@H](CO)NC(=O)[C@H](CC(N)=O)NC(=O)[C@H](CC(C)C)NC(=O)[C@H](Cc3c[nH]cn3)NC(=O)[C@H](CCCCN)NC(=O)CNC(=O)[C@H](CC(C)C)NC(=O)[C@H](CC(N)=O)NC(=O)[C@H](Cc3c[nH]cn3)NC(=O)[C@H](CCSC)NC(=O)[C@H](CC(C)C)NC(=O)[C@H](CCC(N)=O)NC(=O)[C@@H](NC(=O)[C@H](CCC(=O)O)NC(=O)[C@H](CO)NC(=O)[C@@H](NC(=O)[C@@H](N)CO)C(C)C)[C@@H](C)CC)C(C)C)C(C)C)C(=O)O)C2=O)C/C1=C/C=C1\CCC[C@]2(C)[C@@H]([C@H](C)CCCC(C)(C)O)CC[C@@H]12` (stereo partly shown) has a clearance of 0.402 mL/min/kg (male Sprague-Dawley rat, plasma; intravenous, 100 µg/kg, single dose).
`CN1CCCNC(=O)c2cccc(c2)C(=O)NCCCN(C)CCCNc2cccc3c2C(=O)c2cccc(c2C3=O)NCCC1`: “log2 fold change” -0.788 (SAS; RNA-Seq, measured: ARIH2 mRNA; 1 µM, 6 h; relative to: untreated cells).
`C=C(NC(=O)c1csc(-c2nc3c(cc2O)-c2nc(cs2)C(=O)NC(C(C)O)C(=O)NC(=C(C)OC)c2nc(cs2)C(=O)NC2c4nc(cs4)C(=O)NC(COC(=O)c4c5c6c(cccc6n4O)COC(=O)C(OC4CC(C)(O)C(N(C)C)C(C)O4)C2OC5)c2nc-3cs2)n1)C(N)=O` (stereo not shown) gave a half-life of 1.02 h (ICR mice, Streptococcus pneumoniae ATCC 49169 infected, immunocompromised, blood; intravenous, 2 mg/kg/day three times daily).
`C=CC(=O)Nc1cccc(Cn2ncc3cnc(Nc4cnn(CCOC)c4)nc32)c1`: “percent of control” 91% (GRK3 human; binding, KINOMEscan; 100 nM; lower = stronger binding).
The remaining binding of `Nc1ncc(-c2cc(-c3cnn(CC(F)(F)F)c3)ncc2F)nc1C(=O)NC1CNCC(F)C1` (stereo not shown) is reported as 86% (RIOK3; KINOMEscan; 1 µM; relative to: DMSO control).
Under “log2 fold change”, `Cc1ncsc1-c1ccc(C(C)NC(=O)C2CC(O)CN2C(=O)C(NC(=O)CCCCCCCCCCN2CCCC(Nc3ncc(Cl)c(Nc4ccccc4S(=O)(=O)C(C)C)n3)C2)C(C)(C)C)cc1` (stereo not shown) is recorded as -1.27 (22Rv1; RNA-seq, measured: MLH3 mRNA; concentration not given; relative to: DMSO).
For `Cc1nn(-c2cccc(N)c2)c(=O)c2cnc(Nc3ccc(N4CCNCC4)cc3)nc12`, the IC50 was 1810 nM (CAMK2D (Homo sapiens, UniProt Q13557); SelectScreen kinase).
For `CCCC[C@H](NC(=O)COCCOCCNC(=O)CN1CCN(CC(=O)O)CCN(CC(=O)O)CC1)C(=O)N[C@H]1CC(=O)NCCCC[C@@H](C(N)=O)NC(=O)[C@H](Cc2c[nH]c3ccccc23)NC(=O)[C@H](CCCNC(=N)N)NC(=O)[C@@H](Cc2ccccc2)NC(=O)[C@H](Cc2c[nH]cn2)NC1=O` [technetium-99m labelled], the tissue uptake was 2.4 ± 0.75 %ID/g (C57 mouse, liver; intravenous, 0.037 MBq, 0.5 h).
For `Cn1ncc2cc(-c3cncc(Cl)c3N3CCC4(CCNC4=O)CC3)ccc21`, “log2 fold change” read 3.21 (LS174T; gene expression, microarray, measured: ZFP14 mRNA; concentration not given, 24 h; relative to: untreated cells).
For `COC1CN([C@H]2CC[C@H]([C@@]3(C)Oc4c(Cl)cc(C(=O)NCc5c(SC)cc(C)[nH]c5=O)c(C)c4O3)CC2)C1`, “log2 fold change” read 0.0423 (RNA-seq, measured: RYR1 mouse homolog; mouse, HT-1376 xenograft, whole blood; dose not given; relative to: vehicle).
